Results collected from several papers.
A part holds a random share of what one study measured. Substitutions count along the parent as printed.
Sequence of UniProt Q9LQE8 (whole entry, looked up): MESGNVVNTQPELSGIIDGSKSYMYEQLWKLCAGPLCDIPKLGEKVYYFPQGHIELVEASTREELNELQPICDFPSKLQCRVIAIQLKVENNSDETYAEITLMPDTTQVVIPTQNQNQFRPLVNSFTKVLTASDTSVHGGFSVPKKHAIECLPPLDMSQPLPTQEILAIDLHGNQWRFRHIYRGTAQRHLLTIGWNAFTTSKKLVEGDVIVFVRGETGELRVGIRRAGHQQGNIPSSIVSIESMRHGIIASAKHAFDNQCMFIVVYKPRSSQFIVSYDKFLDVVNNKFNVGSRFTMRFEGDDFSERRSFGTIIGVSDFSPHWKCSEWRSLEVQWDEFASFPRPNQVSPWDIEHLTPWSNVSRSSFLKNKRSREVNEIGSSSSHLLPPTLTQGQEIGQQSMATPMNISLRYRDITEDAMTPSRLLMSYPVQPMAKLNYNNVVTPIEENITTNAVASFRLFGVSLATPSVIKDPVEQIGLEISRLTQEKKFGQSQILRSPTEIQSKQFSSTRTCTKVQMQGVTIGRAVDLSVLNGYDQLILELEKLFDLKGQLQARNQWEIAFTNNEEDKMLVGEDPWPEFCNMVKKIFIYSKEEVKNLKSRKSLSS
Sequence of UniProt Q38827 (whole entry, looked up): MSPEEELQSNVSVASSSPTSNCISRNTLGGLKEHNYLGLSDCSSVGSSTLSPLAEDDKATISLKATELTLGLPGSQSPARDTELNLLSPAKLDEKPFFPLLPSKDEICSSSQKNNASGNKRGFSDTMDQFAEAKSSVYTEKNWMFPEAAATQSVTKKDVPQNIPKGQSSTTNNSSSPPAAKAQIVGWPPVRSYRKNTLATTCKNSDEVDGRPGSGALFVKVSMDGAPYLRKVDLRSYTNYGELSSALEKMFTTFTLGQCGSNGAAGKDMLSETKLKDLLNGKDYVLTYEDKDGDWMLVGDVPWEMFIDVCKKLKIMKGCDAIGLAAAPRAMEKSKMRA
Sequence of UniProt Q93WC4 (whole entry, looked up): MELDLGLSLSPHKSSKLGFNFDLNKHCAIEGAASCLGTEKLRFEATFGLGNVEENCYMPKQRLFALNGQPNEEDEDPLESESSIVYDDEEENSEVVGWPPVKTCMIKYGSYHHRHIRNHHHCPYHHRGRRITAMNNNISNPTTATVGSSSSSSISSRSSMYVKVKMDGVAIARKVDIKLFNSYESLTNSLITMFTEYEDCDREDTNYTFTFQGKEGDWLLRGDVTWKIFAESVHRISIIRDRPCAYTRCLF
Sequence of UniProt Q9XED8 (whole entry, looked up): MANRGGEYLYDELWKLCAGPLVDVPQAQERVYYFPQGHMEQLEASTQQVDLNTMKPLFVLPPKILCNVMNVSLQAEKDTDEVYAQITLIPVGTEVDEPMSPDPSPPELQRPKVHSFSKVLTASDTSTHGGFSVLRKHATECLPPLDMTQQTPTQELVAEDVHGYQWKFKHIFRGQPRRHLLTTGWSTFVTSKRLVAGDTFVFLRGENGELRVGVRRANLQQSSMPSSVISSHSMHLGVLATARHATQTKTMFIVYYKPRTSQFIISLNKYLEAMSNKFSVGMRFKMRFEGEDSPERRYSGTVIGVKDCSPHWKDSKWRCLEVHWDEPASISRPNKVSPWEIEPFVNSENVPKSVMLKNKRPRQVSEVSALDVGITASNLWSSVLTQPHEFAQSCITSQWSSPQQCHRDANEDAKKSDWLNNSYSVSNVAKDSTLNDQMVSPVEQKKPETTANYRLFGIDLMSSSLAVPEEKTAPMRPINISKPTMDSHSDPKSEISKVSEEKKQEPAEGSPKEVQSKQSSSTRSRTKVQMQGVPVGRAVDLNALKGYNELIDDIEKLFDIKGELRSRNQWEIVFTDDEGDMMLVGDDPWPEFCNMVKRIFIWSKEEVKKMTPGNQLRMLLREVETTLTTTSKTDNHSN
Sequence of UniProt Q9M1R4 (whole entry, looked up): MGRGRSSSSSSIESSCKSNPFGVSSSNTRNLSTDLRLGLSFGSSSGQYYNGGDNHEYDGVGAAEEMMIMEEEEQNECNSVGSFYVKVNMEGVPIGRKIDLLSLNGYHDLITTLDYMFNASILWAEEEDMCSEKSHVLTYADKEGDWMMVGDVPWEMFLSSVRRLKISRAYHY

Set 1
Target: ABI1, truncated, D143A, DHFR fusion (Arabidopsis thaliana)
Method: DHFR PCA, deep sequencing
Matrix: yeast
Notes: methotrexate growth selection, single substitutions
With: (+)-ABA 200 µM
Baseline: wild-type fitted maximum
Direction: higher = stronger binding
Quantity: relative binding score
Starting sequence: PYL1, truncated, DHFR fusion (Arabidopsis thaliana); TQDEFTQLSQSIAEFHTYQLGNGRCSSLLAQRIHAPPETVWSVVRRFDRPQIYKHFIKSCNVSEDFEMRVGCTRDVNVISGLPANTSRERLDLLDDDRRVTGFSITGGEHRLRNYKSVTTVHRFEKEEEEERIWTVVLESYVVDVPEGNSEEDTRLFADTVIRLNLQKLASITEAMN; partner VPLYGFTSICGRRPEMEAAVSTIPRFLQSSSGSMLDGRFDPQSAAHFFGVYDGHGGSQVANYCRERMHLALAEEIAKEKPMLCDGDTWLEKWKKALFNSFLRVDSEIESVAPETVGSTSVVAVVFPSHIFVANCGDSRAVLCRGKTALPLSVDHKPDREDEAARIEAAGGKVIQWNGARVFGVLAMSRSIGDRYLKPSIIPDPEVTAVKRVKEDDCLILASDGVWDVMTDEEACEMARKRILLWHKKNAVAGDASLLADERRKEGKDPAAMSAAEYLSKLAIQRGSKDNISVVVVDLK
D65P: 108%
F47N: -25.5%
D65W: 80.3%
S27M: 55.5%
F5W: 97.4%
N85M: 98.2%
K126P: 110%
V43D: -1.99%
E174T: 89.7%
L166D: -0.965%
Y141V: -5.42%
E125K: 109%
T1K: 88.9%
V118Y: 56.4%
V78A: 70.2%
N165E: 2.32%
V121M: 55.3%
S63E: 101%
N61Q: 109%
L29W: 50.9%
D75M: 106%
I12Y: 67.1%
S87H: 10.5%

Set 2
Sequence: B1 (IAA5)
Method: two-hybrid
Baseline: out of 4 tests
Direction: higher = firmer interaction
Quantity: positive tests
B1: IAA5 (Arabidopsis thaliana, UniProt P33078); chain MANESNNLGLEITELRLGLPGDIVVSGESISGKKRASPEVEIDLKCEPAKKSQVVGWPPVCSYRRKNSLERTKSSYVKVSVDGAAFLRKIDLEMYKCYQDLASALQILFGCYINFDDTLKESECVPIYEDKDGDWMLAGDVPWEMFLGSCKRLRIMKRSCNRG
ARF14 497-605 (Arabidopsis thaliana, UniProt Q9LQE8): 2
ARF9 519-638 (Arabidopsis thaliana, UniProt Q9XED8); weak activation fusion: 0
IAA29 (Arabidopsis thaliana, UniProt Q93WC4): 2
IAA9 (Arabidopsis thaliana, UniProt Q38827): 4
IAA30 (Arabidopsis thaliana, UniProt Q9M1R4); weak activation fusion: 2

Set 3
Target: RNA binding protein fox-1 homolog 2, RRM domain, GST-SBP tag (RBFOX2, Homo sapiens, UniProt O43251-10, residues 100-194)
Method: RNA Bind-n-Seq
Form: RNA
Matrix: in vitro
Concentration: 365 nM
Notes: natural RNA segment, single round, ends assumed
Baseline: no-protein control
Direction: higher = stronger binding
Quantity: RBNS enrichment (R)
Target sequence (chain): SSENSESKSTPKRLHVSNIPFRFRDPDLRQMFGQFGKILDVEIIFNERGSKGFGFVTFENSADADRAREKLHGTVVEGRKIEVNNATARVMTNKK
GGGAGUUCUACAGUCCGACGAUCAUCUGAAUCAGGAUAGAACACCCAUUAGUCAUUUUCCCCCCACAAAGCAGCAUUCUGCCUGAAGCAGGUAGAAGGCUUUGCUGCUCAUGGAAGCUGGUAGGGAACUUAAAUGGAAUUCUCGGGUGCCAA: 0.34
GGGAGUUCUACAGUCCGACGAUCCCCGUCCCCCAGCUGCCUGUCCUUAUAACCAGCUAUUCUCUGUCCUCUUGGCUCCUGGUCCUCUCUGUGCUCGAUUCUCUAUCCUGUGCCAGUUUCCUCUCCGUCUCACGUGGAAUUCUCGGGUGCCAA: 0.726
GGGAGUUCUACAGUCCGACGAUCGAAUGUAAUGUAAGAAAAAUGUUCAUAAAUAUGGACAAAAAUGGUCCAGAUUACUUAGUUUAAAUAGCUACAUUUUCUUCUGUAUCUAAAACUUCGUUAGAAGAAAGUAAUGGAAUUCUCGGGUGCCAA: 0.609
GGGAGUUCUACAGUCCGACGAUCAUUUUUUAAAGAAUAAAUCCCGCAUGUGAAAGUUUAUGAAGGUUACUAGCAGGUUCUUUUUAAAAGAACAUUUGGUUUUUUUUAAACAUGUGAUUUUUAACACAUAUAUUUGGAAUUCUCGGGUGCCAA: 5.7
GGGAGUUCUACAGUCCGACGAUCUCUGUCUCUUGUUUAUAUGAAUAAGUUCUCGUCGUUUGUCCUUUAUGUAUUCUUCUCUACCGUAUAACACACUGAAACUGUAUCUACUUGCUGUGUUGCAAUAUUUUGCUUGGAAUUCUCGGGUGCCAA: 0.589
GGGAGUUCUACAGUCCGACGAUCGCAGAGCUGCAUUGUGGUAUAUAUACUGAGAGAUCUGCAUUGUUCACCUGCCAGACUGGGAUUUUCCUCUCAUCUAAGACACAAAGCGCCUAAGGUGCUCAGCGUCUCAAUGGAAUUCUCGGGUGCCAA: 0.274
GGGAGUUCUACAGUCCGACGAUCACGACAUGCUUUUGACUCAGUAUGACUGGAAGAGUUUUGGACCACUGAAUCCUGUCUUAAUUAAAAGAACCAGAAACCUUCUAUAUGCCCACCCUGGAAACUGUUCCCCCUGGAAUUCUCGGGUGCCAA: 0.505
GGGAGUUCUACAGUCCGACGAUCCCUGCCCAAGAGCUCCCCACACGCCUCACGUGUUGGAGGGACUGAACACGUCCAGCCAAUCACCUGAAAUUGGGGUGUACAGAGAGGGUGCUGCUGUCACCCAGCUAUCUUGGAAUUCUCGGGUGCCAA: 0.21
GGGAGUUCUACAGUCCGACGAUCAUGAAGAAGAAGAGGGAAAUGGAUGAACUUAGGAGCUAUUCAUCACUAAUGAAAGUUGAAAAUAUGUCUUCAAAUCAGGAUGGCAAUGAUUCAGAUGAAUUCAUGUAAAAUGGAAUUCUCGGGUGCCAA: 0.986
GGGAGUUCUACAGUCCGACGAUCAAAUUAUGCAAUCACCAUAACUUUGUAACUCCUGAGUGUCCUAAGGGAGUACACAUCUUUGAAGCUGAUUUGUUGAUACUCGUGUAAUAAAUGGUUAAAUAUCAAAUGCUUGGAAUUCUCGGGUGCCAA: 1.02
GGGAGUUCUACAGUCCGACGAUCUUGGUUCUCUCCUUGGACUUAAGGAAUCUUACCUUUUCCUUCCACAAAGUUCUCCCAGGCAAGGACCAGCUGCCCAUUCUGAGCCCAGGGCAGCCUCUUCAACCAUUAUUUGGAAUUCUCGGGUGCCAA: 0.468
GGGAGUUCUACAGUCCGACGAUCCAUUUUUUCUUUGGUCAGAAGCCAGGAACUGGUGUCAUUCCUUAAAAGAUACGUGCCGGGGCCAGGUGUGGUGGCUCACGCCUGUAAUCCCAGCACUUUGGGAGGCCGAGUGGAAUUCUCGGGUGCCAA: 0.285

Set 4
Target: Histone acetyltransferase KAT6A, both winged helices, GST fusion (KAT6A, Homo sapiens, UniProt Q92794, residues 1-181)
Method: protein binding microarray
Form: double-stranded DNA, one strand shown
Matrix: in vitro
Concentration: not given
Notes: 8-mer, flanks averaged, mean of 2 arrays, mostly near background
Baseline: not given
Direction: higher = stronger binding
Quantity: E-score
Target sequence (chain): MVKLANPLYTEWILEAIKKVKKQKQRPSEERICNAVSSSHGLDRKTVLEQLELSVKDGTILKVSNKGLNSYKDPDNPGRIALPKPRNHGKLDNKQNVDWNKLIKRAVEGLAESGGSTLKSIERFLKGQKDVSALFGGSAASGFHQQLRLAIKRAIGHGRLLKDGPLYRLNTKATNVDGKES
AGCCGATC: 0.163
ACATGGGT: -0.0208
AATAGCAC: -0.0565
ATCTGTAG: -0.112
CGCGAGGA: 0.181
AATTGCAA: 0.000835
CAGACGAG: -0.141
GAACTCAA: -0.184
CTGTTGGC: -0.23
AGAACCCA: -0.306
CTAGGCTA: -0.0645
CCGCGCGA: 0.334
ATATTCTA: 0.0691
TGGAGAAA: -0.0652
AGGATCTG: -0.114
AACAGATC: -0.00945

Set 5
Target: CCND1, cyclin fold, Cln2 fusion (human)
Method: yeast growth competition, sequencing
Matrix: yeast
Notes: weak parent motif
Baseline: not given
Direction: higher = stronger binding
Quantity: normalised enrichment score
Starting sequence: BRCA2 docking peptide (human); PSIKRNLLNEFDR; partner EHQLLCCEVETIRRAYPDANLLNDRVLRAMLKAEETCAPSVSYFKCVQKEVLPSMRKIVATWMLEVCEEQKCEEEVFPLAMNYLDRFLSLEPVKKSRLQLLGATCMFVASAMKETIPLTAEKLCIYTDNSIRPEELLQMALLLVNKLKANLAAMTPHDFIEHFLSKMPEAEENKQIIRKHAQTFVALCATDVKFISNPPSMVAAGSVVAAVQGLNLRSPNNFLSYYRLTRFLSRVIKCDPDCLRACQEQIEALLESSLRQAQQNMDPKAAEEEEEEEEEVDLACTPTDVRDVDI
F11I: 0.729
D12A: 1.07
N9L: 0.728
L8N: -0.484
N6W: 0.604
P1N: 0.78
E10K: -0.283
L8Y: 0.25
L7I: 0.606
F11T: 0.227
K4A: 1.01
F11K: -0.48
F11D: 0.202
E10S: 0.317
R13Q: 0.498
R5P: 0.588
E10Q: 0.0687
N9H: 0.538
L8Q: 0.219
I3M: -0.361
R5K F11L: -0.395
E10M: 0.427
D12F: 0.723
R13H: 0.291
R5H: -0.529

Single results of other studies
PhoQ, residues 284 288 289 292 302 303 TLMATV  fold induction (PhoP, residues 12 14 15 18 19 AWHSL (Escherichia coli, UniProt P23836); Sort-seq, item: YFP reporter; E. coli; PhoQ-PhoP variant library, with: 10 µM Mg2+; baseline: high Mg2+ state, higher = stronger signaling): 2.67

For quick reference, copied from above (set 4):
ACATGGGT: -0.0208
AATAGCAC: -0.0565
ATCTGTAG: -0.112
CGCGAGGA: 0.181
AATTGCAA: 0.000835
CAGACGAG: -0.141
GAACTCAA: -0.184
CTGTTGGC: -0.23
AGAACCCA: -0.306
CTAGGCTA: -0.0645
CCGCGCGA: 0.334
ATATTCTA: 0.0691
TGGAGAAA: -0.0652
